Results gathered from unrelated publications.
Parts stem from different laboratories: compare values within a part only.
Chain of UniProt Q15303 (whole entry, looked up): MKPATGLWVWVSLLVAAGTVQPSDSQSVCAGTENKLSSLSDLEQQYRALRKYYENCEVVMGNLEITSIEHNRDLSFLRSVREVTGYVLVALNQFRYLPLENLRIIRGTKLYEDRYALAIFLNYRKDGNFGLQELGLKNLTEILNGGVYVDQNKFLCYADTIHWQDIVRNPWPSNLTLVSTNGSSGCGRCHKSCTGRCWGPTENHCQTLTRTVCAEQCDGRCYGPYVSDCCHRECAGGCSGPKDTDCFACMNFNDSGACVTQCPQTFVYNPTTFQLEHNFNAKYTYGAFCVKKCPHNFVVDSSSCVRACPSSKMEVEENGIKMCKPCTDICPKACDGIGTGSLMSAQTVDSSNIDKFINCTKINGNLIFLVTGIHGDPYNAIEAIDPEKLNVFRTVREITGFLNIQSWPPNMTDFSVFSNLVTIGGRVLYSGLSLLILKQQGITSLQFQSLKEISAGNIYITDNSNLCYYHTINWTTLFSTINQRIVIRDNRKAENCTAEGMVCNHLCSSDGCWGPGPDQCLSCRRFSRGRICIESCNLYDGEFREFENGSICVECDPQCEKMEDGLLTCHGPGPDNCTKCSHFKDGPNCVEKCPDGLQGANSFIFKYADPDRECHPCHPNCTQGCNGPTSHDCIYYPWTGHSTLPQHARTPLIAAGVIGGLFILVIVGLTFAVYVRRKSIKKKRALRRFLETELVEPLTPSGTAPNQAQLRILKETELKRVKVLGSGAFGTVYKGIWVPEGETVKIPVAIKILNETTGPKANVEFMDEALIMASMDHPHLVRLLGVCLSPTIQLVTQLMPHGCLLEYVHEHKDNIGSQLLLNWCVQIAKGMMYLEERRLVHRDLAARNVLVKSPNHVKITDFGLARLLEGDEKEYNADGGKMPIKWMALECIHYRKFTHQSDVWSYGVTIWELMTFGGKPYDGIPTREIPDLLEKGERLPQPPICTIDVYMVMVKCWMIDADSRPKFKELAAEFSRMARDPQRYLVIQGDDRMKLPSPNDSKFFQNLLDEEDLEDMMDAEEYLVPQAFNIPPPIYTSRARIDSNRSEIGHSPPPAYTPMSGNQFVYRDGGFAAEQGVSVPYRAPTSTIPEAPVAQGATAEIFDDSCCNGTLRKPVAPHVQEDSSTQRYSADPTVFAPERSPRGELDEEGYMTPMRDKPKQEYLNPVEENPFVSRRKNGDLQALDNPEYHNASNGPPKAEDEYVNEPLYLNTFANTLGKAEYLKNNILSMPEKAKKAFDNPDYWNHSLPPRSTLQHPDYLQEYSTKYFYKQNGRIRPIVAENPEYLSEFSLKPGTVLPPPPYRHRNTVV
Chain of UniProt Q6DT37 (whole entry, looked up): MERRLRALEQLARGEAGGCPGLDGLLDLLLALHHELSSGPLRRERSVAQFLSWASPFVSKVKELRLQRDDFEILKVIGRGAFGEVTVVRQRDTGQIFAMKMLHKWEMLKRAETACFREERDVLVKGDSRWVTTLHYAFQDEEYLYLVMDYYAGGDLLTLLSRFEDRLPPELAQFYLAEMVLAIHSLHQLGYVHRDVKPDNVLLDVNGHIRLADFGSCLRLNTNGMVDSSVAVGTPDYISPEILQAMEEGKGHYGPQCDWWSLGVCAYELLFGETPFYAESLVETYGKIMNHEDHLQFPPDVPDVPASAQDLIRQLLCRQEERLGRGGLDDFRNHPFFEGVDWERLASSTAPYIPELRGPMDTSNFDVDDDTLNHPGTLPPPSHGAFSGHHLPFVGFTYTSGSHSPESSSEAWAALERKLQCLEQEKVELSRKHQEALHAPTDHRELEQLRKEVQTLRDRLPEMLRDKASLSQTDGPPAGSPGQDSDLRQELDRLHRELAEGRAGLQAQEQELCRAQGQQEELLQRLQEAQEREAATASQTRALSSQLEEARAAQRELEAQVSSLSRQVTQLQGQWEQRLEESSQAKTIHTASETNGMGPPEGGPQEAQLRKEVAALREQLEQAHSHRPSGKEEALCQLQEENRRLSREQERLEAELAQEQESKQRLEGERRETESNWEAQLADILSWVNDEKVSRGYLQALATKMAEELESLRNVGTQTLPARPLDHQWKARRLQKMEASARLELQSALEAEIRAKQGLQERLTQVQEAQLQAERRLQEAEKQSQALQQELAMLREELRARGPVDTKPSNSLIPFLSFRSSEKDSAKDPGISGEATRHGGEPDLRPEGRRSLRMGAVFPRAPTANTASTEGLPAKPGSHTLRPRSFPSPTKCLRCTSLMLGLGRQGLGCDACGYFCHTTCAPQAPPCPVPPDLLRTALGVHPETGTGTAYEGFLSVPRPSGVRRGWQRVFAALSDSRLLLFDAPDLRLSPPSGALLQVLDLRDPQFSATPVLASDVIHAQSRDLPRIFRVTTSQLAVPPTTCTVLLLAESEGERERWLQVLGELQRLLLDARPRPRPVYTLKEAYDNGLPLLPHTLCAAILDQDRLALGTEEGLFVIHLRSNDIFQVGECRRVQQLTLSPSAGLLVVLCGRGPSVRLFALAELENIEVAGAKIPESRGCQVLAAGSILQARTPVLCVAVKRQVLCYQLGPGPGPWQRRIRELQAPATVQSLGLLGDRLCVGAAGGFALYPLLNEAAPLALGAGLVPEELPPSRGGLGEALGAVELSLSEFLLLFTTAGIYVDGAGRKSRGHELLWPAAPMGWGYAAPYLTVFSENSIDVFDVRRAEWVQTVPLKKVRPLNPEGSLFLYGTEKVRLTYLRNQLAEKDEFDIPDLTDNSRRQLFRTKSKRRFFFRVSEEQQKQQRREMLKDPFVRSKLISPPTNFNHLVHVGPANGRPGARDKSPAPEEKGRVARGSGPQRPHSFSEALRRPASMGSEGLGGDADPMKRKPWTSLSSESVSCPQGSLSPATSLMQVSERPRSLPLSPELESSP
Chain of UniProt Q14289 (whole entry, looked up): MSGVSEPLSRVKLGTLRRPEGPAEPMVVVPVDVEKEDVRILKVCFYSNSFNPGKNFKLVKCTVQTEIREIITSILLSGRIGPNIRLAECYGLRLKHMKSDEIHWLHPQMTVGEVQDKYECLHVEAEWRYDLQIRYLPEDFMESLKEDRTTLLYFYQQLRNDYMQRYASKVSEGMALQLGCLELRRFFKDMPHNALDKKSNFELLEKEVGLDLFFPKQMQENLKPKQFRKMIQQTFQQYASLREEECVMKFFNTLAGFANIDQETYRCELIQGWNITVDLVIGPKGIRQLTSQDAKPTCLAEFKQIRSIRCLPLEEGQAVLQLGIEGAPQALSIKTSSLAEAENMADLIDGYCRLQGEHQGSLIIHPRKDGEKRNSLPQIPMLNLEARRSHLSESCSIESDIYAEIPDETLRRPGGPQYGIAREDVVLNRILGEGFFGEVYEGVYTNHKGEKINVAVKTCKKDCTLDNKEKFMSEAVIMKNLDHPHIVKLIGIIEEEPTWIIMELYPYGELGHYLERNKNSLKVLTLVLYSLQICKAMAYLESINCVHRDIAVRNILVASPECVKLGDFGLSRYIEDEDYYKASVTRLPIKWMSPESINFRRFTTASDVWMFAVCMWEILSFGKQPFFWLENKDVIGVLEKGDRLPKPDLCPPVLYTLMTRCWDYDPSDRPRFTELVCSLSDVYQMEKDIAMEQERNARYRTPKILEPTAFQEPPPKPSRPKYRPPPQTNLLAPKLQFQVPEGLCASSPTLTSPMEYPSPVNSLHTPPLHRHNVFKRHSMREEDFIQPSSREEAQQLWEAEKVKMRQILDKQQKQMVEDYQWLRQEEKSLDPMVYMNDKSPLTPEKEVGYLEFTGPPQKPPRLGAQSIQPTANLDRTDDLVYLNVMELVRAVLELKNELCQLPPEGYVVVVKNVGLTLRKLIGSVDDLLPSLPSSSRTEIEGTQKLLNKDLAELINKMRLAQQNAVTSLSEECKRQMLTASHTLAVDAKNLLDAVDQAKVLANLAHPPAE
Chain of UniProt P07949 (whole entry, looked up): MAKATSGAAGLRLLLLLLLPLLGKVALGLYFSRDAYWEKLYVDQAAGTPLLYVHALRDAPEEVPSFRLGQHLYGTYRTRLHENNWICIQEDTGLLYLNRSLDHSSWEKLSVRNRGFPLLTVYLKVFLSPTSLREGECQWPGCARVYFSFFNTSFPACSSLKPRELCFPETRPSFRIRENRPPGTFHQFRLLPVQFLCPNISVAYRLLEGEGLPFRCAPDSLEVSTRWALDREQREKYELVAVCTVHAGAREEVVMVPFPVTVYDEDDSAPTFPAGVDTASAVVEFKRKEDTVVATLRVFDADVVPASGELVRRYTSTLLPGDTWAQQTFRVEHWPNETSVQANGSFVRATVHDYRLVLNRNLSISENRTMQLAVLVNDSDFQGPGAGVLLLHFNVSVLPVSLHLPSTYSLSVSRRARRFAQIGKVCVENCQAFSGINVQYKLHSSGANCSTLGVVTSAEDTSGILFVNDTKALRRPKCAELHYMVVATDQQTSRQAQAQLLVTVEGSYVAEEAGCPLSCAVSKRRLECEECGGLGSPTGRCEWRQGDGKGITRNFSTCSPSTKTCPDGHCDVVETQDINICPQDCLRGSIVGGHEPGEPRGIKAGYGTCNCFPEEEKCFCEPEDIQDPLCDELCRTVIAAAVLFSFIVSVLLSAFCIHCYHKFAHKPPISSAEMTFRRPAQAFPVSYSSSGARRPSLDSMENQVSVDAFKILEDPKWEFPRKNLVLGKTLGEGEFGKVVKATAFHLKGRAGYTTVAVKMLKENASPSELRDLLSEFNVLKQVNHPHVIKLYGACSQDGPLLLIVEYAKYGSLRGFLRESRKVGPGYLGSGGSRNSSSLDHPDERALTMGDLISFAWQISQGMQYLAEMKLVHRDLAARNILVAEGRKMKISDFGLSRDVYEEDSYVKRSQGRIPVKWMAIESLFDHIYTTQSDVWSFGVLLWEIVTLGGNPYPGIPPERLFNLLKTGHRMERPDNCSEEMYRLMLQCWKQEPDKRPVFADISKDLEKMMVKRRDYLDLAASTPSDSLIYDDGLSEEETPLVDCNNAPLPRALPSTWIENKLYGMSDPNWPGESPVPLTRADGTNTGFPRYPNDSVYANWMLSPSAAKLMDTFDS

Series 1
Species: mouse
Sample: microsomes or S9
Tested at: 2 µM
Time: 0.5 h
Measurement: remaining compound
Structure (SMILES) = COCCN(C)C(=O)C1(C)CN(S(C)(=O)=O)CCO1 (stereo not shown); value = 89.5%
Structure (SMILES) = CS(=O)(=O)N1C2CCC1CC(NC(=O)Cn1cc(-c3ccc(F)cc3)cn1)C2 (stereo not shown); value = 23.1%
Structure (SMILES) = CC1CCc2cc(F)ccc2N1S(=O)(=O)c1cc(Cl)ccc1Cl (stereo not shown); value = 99.1%
Structure (SMILES) = CCn1c(=O)n(CC)c2cc(NC(=O)CCN3Cc4ccccc4C3=O)ccc21; value = 5.92%
Structure (SMILES) = CC(C)(C)c1ccc(C(O)CCC(=O)N[C@@H]2C=C[C@H](CO)C2)cc1 (stereo partly shown); value = 52.3%
Structure (SMILES) = Cc1cc(Nc2cnccn2)cc(C2CCCN2C(=O)CC2(O)CCCCC2)n1 (stereo not shown); value = 8.03%
Structure (SMILES) = COCCCNC(=O)c1nc(CC(=O)Nc2ccc3cc[nH]c3c2)no1; value = 67.9%

Series 2
Cell line: mouse MPNST tumor cells
Method: high-content nuclear imaging
Refers to: cell number
Tested at: 10 µM
Time: 12 h
Notes: mean of 2 replicates
Baseline: plate mean
Reading: higher = more cells
Measurement: nuclei count
SMILES = Cc1c(C)c(NCC(=O)N(C)C2CCN(Cc3ccc(C(N)=O)cc3)CC2)c(C)c(C)c1N; value = -0.546 z-score
SMILES = Nc1nccc(-c2c(-c3ccc(F)cc3)ncn2C2CCCCC2)n1; value = -0.297 z-score
SMILES = COc1ccc(N2CCN(C(CNC(=O)C3CCCCC3)c3ccc4c(c3)OCO4)CC2)cc1 (stereo not shown); value = 0.57 z-score
SMILES = CN(C)[C@@H]1CCc2[nH]c3ccc(NC(=O)c4ccc(F)cc4)cc3c2C1; value = 5.46 z-score
SMILES = CNc1nnc(SCc2ccccc2)s1; value = 1.02 z-score

Series 3
Compound: CS(=O)(=O)N1CCCC(NC(=O)[C@H](CCC2CCCCC2)NC(=O)c2ccc(CNC(=O)c3cnc4ccccn34)cc2)C1 (stereo partly shown)
Tested at: 0.1 µM
Measurement: remaining binding
target = Ephrin type-B receptor 4 (EPHB4, Homo sapiens, UniProt P54760); test = cell-free assay, competition with immobilised ligand; value = 97%
target = Protein kinase C epsilon type (PRKCE, Homo sapiens, UniProt Q02156); test = cell-free assay, competition with immobilised ligand; value = 83%
target = Serine/threonine-protein kinase Sgk1 (SGK1, Homo sapiens, UniProt O00141); test = cell-free assay, competition with immobilised ligand; value = 100%
target = SNF-related serine/threonine-protein kinase (SNRK, Homo sapiens, UniProt Q9NRH2); test = cell-free assay, competition with immobilised ligand; value = 69%
target = Serine/threonine-protein kinase 36 (STK36, Homo sapiens, UniProt Q9NRP7); test = cell-free assay, competition with immobilised ligand; value = 100%
target = Protein-tyrosine kinase 2-beta (PTK2B, Homo sapiens, UniProt Q14289); test = cell-free assay, competition with immobilised ligand; value = 100%
target = Serine/threonine-protein kinase MRCK gamma (CDC42BPG, Homo sapiens, UniProt Q6DT37); test = competition binding; value = 98%
target = Phosphorylase b kinase gamma catalytic chain, skeletal muscle/heart isoform (PHKG1, Homo sapiens, UniProt Q16816); test = cell-free assay, competition with immobilised ligand; value = 68%
target = Phosphatidylinositol 4,5-bisphosphate 3-kinase catalytic subunit alpha isoform (PIK3CA, Homo sapiens, UniProt P42336); test = cell-free assay, competition with immobilised ligand; value = 86%
target = Tyrosine-protein kinase ABL1, phosphorylated (ABL1, Homo sapiens, UniProt P00519, F317L); test = cell-free assay, competition with immobilised ligand; value = 100%
target = Proto-oncogene tyrosine-protein kinase receptor Ret (RET, Homo sapiens, UniProt P07949); test = cell-free assay, competition with immobilised ligand; value = 85%
target = Receptor tyrosine-protein kinase erbB-4 (ERBB4, Homo sapiens, UniProt Q15303); test = cell-free assay, competition with immobilised ligand; value = 95%
target = Serine/threonine-protein kinase PLK2 (PLK2, Homo sapiens, UniProt Q9NYY3); test = cell-free assay, competition with immobilised ligand; value = 100%

Series 4
SMILES: COc1cc(C(=O)N2CCC(N3CCN(C)CC3)CC2)ccc1Nc1ncc2c(n1)N(C)c1ccccc1C(=O)N2C
Measurement: inhibition
tested on = MAP/microtubule affinity-regulating kinase 4 (Mus musculus, UniProt Q8CIP4); test = KiNativ profiling; system = mouse brain lysate; conditions = 0.1 µM, LYS1 site, with: ATP acyl phosphate probe; value = -8%
tested on = PIK3CA; conditions = 0.1 µM; value = -13.1%
tested on = PIK3C2B human; test = KiNativ profiling; system = human PBMC lysate; conditions = concentration not given, ATP probe, ATP site; value = 7.9%
tested on = IRAK3 (human); test = probe labelling, KiNativ ATP probe; system = human PBMC lysate; conditions = concentration not given, LYS1 labelled site; value = -17.4%
tested on = human PBMC; test = probe labeling, inhibitor, KiNativ profiling, refers to: LTDFGLSkESIDHEKK; system = cell lysate; conditions = concentration not given, domain 1, activation loop site, with: ADP acyl-phosphate probe 1 µM; value = -0.4%
tested on = CaMKK2 (mouse); test = probe labelling, KiNativ, refers to: Lys1 site peptide; system = brain tissue lysate (mouse); conditions = 1 µM, with: ADP acyl-phosphate probe; value = 23.2%

A few entries again (series 3):
target = Serine/threonine-protein kinase PLK2 (PLK2, Homo sapiens, UniProt Q9NYY3); test = cell-free assay, competition with immobilised ligand; value = 100%
target = Serine/threonine-protein kinase 36 (STK36, Homo sapiens, UniProt Q9NRP7); test = cell-free assay, competition with immobilised ligand; value = 100%
target = SNF-related serine/threonine-protein kinase (SNRK, Homo sapiens, UniProt Q9NRH2); test = cell-free assay, competition with immobilised ligand; value = 69%
target = Ephrin type-B receptor 4 (EPHB4, Homo sapiens, UniProt P54760); test = cell-free assay, competition with immobilised ligand; value = 97%
target = Serine/threonine-protein kinase MRCK gamma (CDC42BPG, Homo sapiens, UniProt Q6DT37); test = competition binding; value = 98%
